Experimental data gathered from unrelated publications.
Parts stem from different laboratories: compare values within a part only. Changes are numbered by the printed parent chain.

Study 1
Target: ABI1, truncated, D143A, DHFR fusion (Arabidopsis thaliana)
Method: DHFR PCA, deep sequencing
Sample: yeast
Setting: methotrexate growth selection, single substitutions
Together with: (+)-ABA 0.39 µM
Baseline: wild-type fitted maximum
Reading: higher = stronger binding
Endpoint: relative binding score
Starting sequence: PYL1, truncated, DHFR fusion (Arabidopsis thaliana); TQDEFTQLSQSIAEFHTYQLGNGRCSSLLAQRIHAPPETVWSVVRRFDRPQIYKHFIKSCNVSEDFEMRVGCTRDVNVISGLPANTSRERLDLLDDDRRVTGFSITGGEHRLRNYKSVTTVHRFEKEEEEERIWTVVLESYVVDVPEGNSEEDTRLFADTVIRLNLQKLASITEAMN
T17N: 5.28%
T17S: 23.6%
L82G: 42.8%
E109A: 1.71%
R113Y: -5.13%
F15S: -2.5%
V142N: -19.2%
R69N: 19.5%
A13D: 38.7%
V62E: -10.7%
I133L: 42.5%
R88W: 10.4%
S117M: 3.6%
V145I: 42%
E38T: 0.809%

Study 2
Target: CREBL2, bZIP domain (human)
Method: DHFR protein complementation
Sample: yeast
Setting: single substitutions, most at no-binding floor
Baseline: wild-type JUN-FOS pair
Reading: higher = stronger binding
Endpoint: binding fitness
Starting sequence: JUN, bZIP domain (human); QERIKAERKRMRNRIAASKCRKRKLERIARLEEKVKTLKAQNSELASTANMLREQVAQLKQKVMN; partner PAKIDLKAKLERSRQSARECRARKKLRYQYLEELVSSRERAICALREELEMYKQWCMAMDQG
M51V: -1.46 natural log
L52D: -1.59 natural log
E32V: -1.51 natural log
K34W: -1.58 natural log
Q41N: -1.3 natural log
T37V: -1.48 natural log
A49L: -1.39 natural log
K34T: -1.55 natural log
Q41F: -1.45 natural log
K34D: -1.49 natural log
E54S: -1.53 natural log
A46K: -1.5 natural log
A40L: -1.55 natural log
Q55N: -1.53 natural log
K36V: -1.53 natural log
L38S: -1.54 natural log

Study 3
Target: Histone acetyltransferase KAT6A, both winged helices, GST fusion (KAT6A, Homo sapiens, UniProt Q92794, residues 1-181)
Method: protein binding microarray
Form: double-stranded DNA, one strand shown
Sample: in vitro
Tested at: not given
Setting: 8-mer, flanks averaged, mean of 2 arrays, mostly near background
Baseline: not given
Reading: higher = stronger binding
Endpoint: E-score
Residues (chain): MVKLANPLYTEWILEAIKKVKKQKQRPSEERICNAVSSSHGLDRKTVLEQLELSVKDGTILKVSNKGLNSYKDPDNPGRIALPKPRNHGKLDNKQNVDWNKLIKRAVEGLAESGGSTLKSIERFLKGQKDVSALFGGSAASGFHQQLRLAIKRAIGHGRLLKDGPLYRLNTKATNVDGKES
CTAGAAAC: -0.168
AACTTGGG: -0.0931
GGACTGGA: -0.125
CTGGATTC: -0.0777
AGGTTACA: 0.00846
ATGGCGAC: -0.0193
AGTTTGCC: -0.0241
ATGAGGTG: -0.194
ATATGAAA: -0.033
CGGCGCTA: 0.36
CGCTGTCA: 0.182
CCATGCCA: -0.0489
CAAAACGA: -0.0434
CAACAAAC: -0.0852
ACCGTCAT: 0.161
GGGTGATA: 0.0526
ATTAAGGG: -0.169
TACGGCGA: 0.317
ATGGAAAG: -0.086
AATCGCCG: 0.359
TAAGTTGA: -0.0657
CACGAAGA: -0.0755
ACGGATAC: 0.2
CCCCCGTC: 0.0379
CCGCTTCG: 0.262

Study 4
Target: Interferon regulatory factor 5, full length, phosphomimetic (IRF5, Homo sapiens, UniProt Q13568-2, residues 1-514, S451D/S453D/S456D/S462D)
Method: protein-binding microarray
Form: double-stranded DNA, one strand shown
Sample: in vitro
Tested at: 940 nM top
Setting: 60-bp whole probe
Together with: salmon DNA 0.4 mg/ml
Baseline: random background probes
Reading: higher = stronger binding
Endpoint: fitted relative affinity
Constant ends, left off below: GCCTAGCAC … GTCTTGATTCGCTTGACGCTGCTG
TTAGGACTGGGACTGAGTTAGTGCTAG: -0.616 z-score
TTAGGTATCGGACTGGCTTAGTGCTAG: 3.76 z-score
TTAAGTCTCGGTATCGGTTAGTGCTAG: 8.53 z-score
GACGTACTGGGTTTCGGGACGTGCTAG: 2.89 z-score
TTAGGTTTCGGGTTTCGGTGAGTGCTA: 11.3 z-score
GACGGACTGGGGACTGGCGACGTGCTA: -0.403 z-score
TTAGGCTCCGGTTTCGGTTAGTGCTAG: 7.42 z-score
TTAGATATCGGGGATCGATTAGTGCTA: 0.242 z-score
GACAGACTGGACTTTCGGGACGTGCTA: 0.323 z-score
TTAGGGCTCCTACTGCTTTAGTGCTAG: -0.388 z-score
GACGGTTTCCTTTCGCTGACGTGCTAG: 2.52 z-score
GACGAACTGAGCATCGAGACGTGCTAG: -0.373 z-score
TTCGGTTTCGGTATCGGTTAGTGCTAG: 14.8 z-score
TCACATTGCTTTCTCTTACTGTGCTAG: 2.22 z-score
TCATCTGTCCGTGCTCAGACTGTGCTA: -0.128 z-score
GACGGTAACGACTTTCGGGACGTGCTA: 0.55 z-score
TTAGGTTCCCTTTGCCTTTAGTGCTAG: 0.563 z-score
CTGGGTATTTTTCTAAACCAGTGCTAG: 0.817 z-score
GACGAACTGGGGCATCGAGACGTGCTA: -0.04 z-score
TTAGATCTCAGTATCGATTAGTGCTAG: 5.04 z-score
TTAGGACTGGAGACTGGGTTAGTGCTA: -0.388 z-score
TTAGGACTGGACTAGCGGTTAGTGCTA: -0.747 z-score
GACGGGATCGACACTGGGGACGTGCTA: 0.0238 z-score
TTTCCTTTATGTCCTGTCTAGTGCTAG: 2.78 z-score
GTCGGTATCGGTCTCGGGACGTGCTAG: 11.5 z-score

Study 5
Target: CCND3, cyclin fold, Cln2 fusion (human)
Method: yeast growth competition, sequencing
Sample: yeast
Setting: weak parent motif
Baseline: not given
Reading: higher = stronger binding
Endpoint: normalised enrichment score
Starting sequence: E2F1 docking peptide (human); PPVKRRLDLETDH
PPVKRRLDLETDM [H13M]: 0.0953
SPVKRRLDLETDH [P1S]: 0.147
PPVKYRLDLETDH [R5Y]: 0.102
PQVKRRLDLETDH [P2Q]: 0.0556
DPVKRRLDLETDH [P1D]: 0.065
PPVKRRLLLETDH [D8L]: 0.192
PPVKRRLDLETEH [D12E]: 0.172
PPVCRRLDLETDH [K4C]: 0.141
PWVKRRLDLETDH [P2W]: 0.0891
PPVIRRLDLETDH [K4I]: 0.0905
PPVKRRLDLEVDH [T11V]: 0.0511
PPVERRLDLETDH [K4E]: 0.0857
PPVKPRLDLETDH [R5P]: -0.0288
PYVKRRLDLETDH [P2Y]: 0.112
PPVKMRLDLETDH [R5M]: 0.179
PPVKRYLDLETDH [R6Y]: 0.0921
PPVKKRLDLETDH [R5K]: 0.273
PPVKRRLDLRTDH [E10R]: 0.124
YPVKRRLDLETDH [P1Y]: 0.289
PPVKRRLDLETCH [D12C]: 0.125
PPVKRRCDLETDH [L7C]: 0.143
PPVKERLDLETDH [R5E]: 0.177
PDVKRRLDLETDH [P2D]: 0.127
PPVKRRLDLETDS [H13S]: 0.136
PPVKRRSDLETDH [L7S]: 0.126

Repeated from above (study 1):
I133L: 42.5%
A13D: 38.7%
R113Y: -5.13%
T17S: 23.6%
T17N: 5.28%
R88W: 10.4%
S117M: 3.6%
F15S: -2.5%
V62E: -10.7%
V142N: -19.2%
V145I: 42%
E38T: 0.809%
R69N: 19.5%
